Experimental data of several laboratories.
Each numbered part is a random draw from the data of one study; scales do not carry over between parts.
Chain of UniProt P42679 (whole entry, looked up): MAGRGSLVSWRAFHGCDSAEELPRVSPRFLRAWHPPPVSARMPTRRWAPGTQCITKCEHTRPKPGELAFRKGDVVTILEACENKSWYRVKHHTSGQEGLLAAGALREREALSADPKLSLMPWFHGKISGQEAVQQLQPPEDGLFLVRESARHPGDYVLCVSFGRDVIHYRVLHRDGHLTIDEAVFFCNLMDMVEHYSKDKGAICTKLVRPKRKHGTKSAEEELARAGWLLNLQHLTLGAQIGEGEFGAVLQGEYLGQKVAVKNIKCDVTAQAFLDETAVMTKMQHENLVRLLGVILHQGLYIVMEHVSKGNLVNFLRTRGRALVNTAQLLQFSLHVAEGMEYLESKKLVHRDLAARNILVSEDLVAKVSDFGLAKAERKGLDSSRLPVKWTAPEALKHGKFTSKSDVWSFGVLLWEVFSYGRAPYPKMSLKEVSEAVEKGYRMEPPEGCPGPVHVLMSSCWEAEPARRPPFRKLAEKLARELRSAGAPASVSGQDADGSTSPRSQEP
Chain of UniProt P42336 (whole entry, unmodified, looked up): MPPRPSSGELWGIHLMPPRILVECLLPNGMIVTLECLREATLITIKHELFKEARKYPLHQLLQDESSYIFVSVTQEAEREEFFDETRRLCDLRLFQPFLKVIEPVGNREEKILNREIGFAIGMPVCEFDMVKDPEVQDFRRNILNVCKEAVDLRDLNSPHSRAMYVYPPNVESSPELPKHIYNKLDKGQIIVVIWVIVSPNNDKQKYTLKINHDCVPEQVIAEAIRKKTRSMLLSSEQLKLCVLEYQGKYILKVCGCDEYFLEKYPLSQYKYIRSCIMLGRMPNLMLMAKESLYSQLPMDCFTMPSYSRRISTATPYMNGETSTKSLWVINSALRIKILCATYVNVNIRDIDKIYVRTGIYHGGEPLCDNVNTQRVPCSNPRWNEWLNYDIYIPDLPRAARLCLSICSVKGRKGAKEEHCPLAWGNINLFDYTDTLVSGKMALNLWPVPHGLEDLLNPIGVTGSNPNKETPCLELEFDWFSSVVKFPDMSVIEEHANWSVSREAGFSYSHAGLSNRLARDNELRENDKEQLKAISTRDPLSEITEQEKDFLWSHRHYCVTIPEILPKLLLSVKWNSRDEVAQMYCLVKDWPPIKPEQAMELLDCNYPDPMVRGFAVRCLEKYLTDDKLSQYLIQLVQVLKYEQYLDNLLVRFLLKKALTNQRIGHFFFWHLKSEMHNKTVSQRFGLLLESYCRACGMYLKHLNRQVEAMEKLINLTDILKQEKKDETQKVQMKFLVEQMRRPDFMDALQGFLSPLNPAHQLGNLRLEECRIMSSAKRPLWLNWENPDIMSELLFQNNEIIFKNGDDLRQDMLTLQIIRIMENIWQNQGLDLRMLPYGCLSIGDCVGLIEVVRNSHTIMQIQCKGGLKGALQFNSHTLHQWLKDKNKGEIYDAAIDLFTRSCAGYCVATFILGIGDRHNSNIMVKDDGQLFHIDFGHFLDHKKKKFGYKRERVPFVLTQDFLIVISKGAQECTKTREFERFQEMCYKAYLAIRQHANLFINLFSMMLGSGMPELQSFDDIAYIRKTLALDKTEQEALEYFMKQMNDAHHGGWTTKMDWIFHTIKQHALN
Chain of UniProt Q9UKI8 (whole entry, looked up): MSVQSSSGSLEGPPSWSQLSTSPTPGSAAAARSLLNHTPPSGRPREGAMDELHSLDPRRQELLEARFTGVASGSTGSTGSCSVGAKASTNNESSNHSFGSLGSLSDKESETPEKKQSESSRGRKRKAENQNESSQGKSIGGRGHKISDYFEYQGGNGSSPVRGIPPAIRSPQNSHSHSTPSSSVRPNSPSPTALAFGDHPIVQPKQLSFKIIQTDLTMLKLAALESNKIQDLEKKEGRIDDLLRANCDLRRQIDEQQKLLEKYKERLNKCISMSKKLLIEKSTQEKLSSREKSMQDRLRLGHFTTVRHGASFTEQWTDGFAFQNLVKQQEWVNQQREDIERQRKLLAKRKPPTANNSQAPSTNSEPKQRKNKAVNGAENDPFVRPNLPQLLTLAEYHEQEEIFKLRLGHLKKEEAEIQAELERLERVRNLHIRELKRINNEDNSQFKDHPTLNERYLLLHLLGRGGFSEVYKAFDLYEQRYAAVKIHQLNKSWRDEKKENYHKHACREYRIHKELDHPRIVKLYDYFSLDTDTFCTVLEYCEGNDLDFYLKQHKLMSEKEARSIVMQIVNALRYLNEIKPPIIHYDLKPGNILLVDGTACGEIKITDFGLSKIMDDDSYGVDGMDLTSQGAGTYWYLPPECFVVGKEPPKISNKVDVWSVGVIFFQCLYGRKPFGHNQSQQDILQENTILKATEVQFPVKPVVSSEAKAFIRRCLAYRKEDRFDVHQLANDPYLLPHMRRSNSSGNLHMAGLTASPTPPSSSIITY
Chain of UniProt Q56UN5 (whole entry, looked up): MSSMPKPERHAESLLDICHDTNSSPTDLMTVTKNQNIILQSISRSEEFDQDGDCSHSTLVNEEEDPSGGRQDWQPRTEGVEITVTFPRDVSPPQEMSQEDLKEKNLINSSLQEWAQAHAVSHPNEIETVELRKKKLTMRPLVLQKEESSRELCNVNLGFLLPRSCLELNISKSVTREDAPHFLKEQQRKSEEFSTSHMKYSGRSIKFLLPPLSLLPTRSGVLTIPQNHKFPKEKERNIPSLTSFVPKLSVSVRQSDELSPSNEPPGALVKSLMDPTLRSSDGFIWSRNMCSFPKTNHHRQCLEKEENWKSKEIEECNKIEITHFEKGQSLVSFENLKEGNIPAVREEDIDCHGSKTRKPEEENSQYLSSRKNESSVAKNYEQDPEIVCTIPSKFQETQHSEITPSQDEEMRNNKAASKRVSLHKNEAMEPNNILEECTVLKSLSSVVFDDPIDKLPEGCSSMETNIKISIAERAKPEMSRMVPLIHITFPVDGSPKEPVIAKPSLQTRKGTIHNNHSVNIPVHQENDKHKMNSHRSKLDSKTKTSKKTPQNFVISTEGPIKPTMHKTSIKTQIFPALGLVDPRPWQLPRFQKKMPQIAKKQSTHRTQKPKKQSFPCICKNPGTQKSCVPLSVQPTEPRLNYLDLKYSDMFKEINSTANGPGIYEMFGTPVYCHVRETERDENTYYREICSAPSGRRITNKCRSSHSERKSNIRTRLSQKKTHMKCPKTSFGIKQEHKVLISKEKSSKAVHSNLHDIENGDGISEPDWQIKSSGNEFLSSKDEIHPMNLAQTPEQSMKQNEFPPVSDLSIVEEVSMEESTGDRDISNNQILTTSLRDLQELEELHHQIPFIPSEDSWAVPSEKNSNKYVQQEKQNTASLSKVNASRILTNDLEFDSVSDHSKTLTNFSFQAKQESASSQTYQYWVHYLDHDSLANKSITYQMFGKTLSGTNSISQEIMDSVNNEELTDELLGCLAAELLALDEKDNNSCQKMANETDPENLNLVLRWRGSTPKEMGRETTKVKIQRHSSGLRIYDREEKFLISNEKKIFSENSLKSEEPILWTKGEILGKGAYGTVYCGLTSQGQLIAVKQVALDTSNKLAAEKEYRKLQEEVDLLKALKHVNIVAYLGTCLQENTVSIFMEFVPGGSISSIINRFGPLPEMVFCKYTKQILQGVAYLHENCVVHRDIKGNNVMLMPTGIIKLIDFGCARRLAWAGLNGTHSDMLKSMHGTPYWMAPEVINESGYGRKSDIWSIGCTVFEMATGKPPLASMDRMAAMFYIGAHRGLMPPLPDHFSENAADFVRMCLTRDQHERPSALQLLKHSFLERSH
Chain of UniProt Q9UPZ9 (whole entry, looked up): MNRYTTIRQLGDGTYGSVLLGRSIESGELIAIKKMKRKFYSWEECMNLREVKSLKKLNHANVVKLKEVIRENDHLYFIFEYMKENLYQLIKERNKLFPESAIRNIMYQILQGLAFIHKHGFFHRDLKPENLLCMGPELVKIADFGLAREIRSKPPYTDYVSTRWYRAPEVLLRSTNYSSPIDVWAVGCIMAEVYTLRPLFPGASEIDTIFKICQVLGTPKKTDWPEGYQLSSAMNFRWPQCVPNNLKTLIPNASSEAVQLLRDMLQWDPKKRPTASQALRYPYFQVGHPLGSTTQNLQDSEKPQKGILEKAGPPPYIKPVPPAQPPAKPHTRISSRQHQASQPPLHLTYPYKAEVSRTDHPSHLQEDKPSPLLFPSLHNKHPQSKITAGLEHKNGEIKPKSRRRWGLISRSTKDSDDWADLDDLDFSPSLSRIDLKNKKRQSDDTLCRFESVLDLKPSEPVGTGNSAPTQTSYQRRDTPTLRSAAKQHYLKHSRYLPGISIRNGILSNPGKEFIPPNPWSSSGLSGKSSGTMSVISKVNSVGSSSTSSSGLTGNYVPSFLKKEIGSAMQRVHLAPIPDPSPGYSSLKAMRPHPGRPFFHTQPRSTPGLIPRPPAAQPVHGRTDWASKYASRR

Series 1
SMILES: Cn1cc(/C=C2\C(=O)Nc3ccc(S(N)(=O)=O)cc32)c2ccccc21
Observed: enzyme activity
Action: inhibitor
Tested at: 0.5 µM
Relative to: control
Quantity: remaining activity
target = Vascular endothelial growth factor receptor 3 (FLT4, Homo sapiens, UniProt P35916); result = 65.1%
target = Serine/threonine-protein kinase TAO3 (TAOK3, Homo sapiens, UniProt Q9H2K8); result = 60.2%
target = Serine/threonine-protein kinase 25 (STK25, Homo sapiens, UniProt O00506); result = 83.5%
target = Tyrosine-protein kinase Fgr (FGR, Homo sapiens, UniProt P09769); result = 28.4%
target = Serine/threonine-protein kinase NLK (NLK, Homo sapiens, UniProt Q9UBE8); result = 90.4%
target = Megakaryocyte-associated tyrosine-protein kinase (MATK, Homo sapiens, UniProt P42679); result = 103%
target = Tyrosine-protein kinase Fyn (FYN, Homo sapiens, UniProt P06241); result = 45.7%
target = MAP/microtubule affinity-regulating kinase 3 (MARK3, Homo sapiens, UniProt P27448); result = 57.2%
target = Insulin receptor (INSR, Homo sapiens, UniProt P06213); result = 87.4%
target = Serine/threonine-protein kinase N1 (PKN1, Homo sapiens, UniProt Q16512); result = 68.9%
target = ALK tyrosine kinase receptor (ALK, Homo sapiens, UniProt Q9UM73); result = 72.1%
target = Proto-oncogene tyrosine-protein kinase Src (SRC, Homo sapiens, UniProt P12931); result = 45.1%
target = LIM domain kinase 1 (LIMK1, Homo sapiens, UniProt P53667); result = 74.1%
target = cAMP-dependent protein kinase catalytic subunit PRKX (PRKX, Homo sapiens, UniProt P51817); result = 81%
target = Serine/threonine-protein kinase MRCK alpha (CDC42BPA, Homo sapiens, UniProt Q5VT25); result = 70.7%
target = Cyclin-dependent kinase 3, with cyclin E (CDK3, Homo sapiens, UniProt Q00526); result = 90.3%
target = RAC-alpha serine/threonine-protein kinase (AKT1, Homo sapiens, UniProt P31749); result = 105%
target = PAS domain-containing serine/threonine-protein kinase (PASK, Homo sapiens, UniProt Q96RG2); result = 84.8%
target = Tyrosine-protein kinase ITK/TSK (ITK, Homo sapiens, UniProt Q08881); result = 21.4%
target = Tyrosine-protein kinase Fer (FER, Homo sapiens, UniProt P16591); result = 20%
target = Homeodomain-interacting protein kinase 1 (HIPK1, Homo sapiens, UniProt Q86Z02); result = 97.2%
target = Serine/threonine-protein kinase Nek11 (NEK11, Homo sapiens, UniProt Q8NG66); result = 96.1%

Series 2
Host: mouse
Medium: microsomes or S9
Tested at: 2 µM
Time: 0.5 h
Quantity: remaining compound
Compound = CC1(C)Cc2ccccc2C(c2sc3nc4c(cc3c2N)CCC4)=N1; result = 0.657%
Compound = O=C(Cn1c(COc2ccc(Br)cc2Cl)noc1=O)Nc1cccc(Br)c1; result = 10.5%
Compound = Clc1ncccc1-c1nc2ccccc2c2c(Br)cnn12; result = 85%
Compound = COC(=O)c1sccc1N1C(=O)C/C(=C/c2c[nH]c3ncccc23)C1=O; result = 0.53%
Compound = O=c1c(C(c2ccncc2)c2c(O)nc3n(c2=O)CCCS3)c(O)nc2n1CCCS2; result = 90.8%
Compound = Cc1ccccc1NCc1cc(=O)n2nc(-c3ccccc3C)nc2[nH]1; result = 43.1%
Compound = Cc1nc(-c2ccccc2C)n(CC(O)c2ccccc2)n1 (centres unmarked); result = 0.698%
Compound = O=S(=O)(c1ccccc1)N(CC(O)COc1cc(Cl)ccc1Cl)c1nccs1 (centres unmarked); result = 3.2%
Compound = CCC(CNC(=O)CCOCC(C)C)NC(=O)CCOCC(C)C (centres unmarked); result = 8.82%
Compound = CCN1C(=O)C2(NC(C)Cc3c2[nH]c2ccccc32)c2ccccc21 (centres unmarked); result = 0.839%
Compound = CC1(C)Cc2c(sc3[nH]c(=O)n(C4CCCCC4)c(=O)c23)CO1; result = 3.43%

Series 3
Structure (SMILES): CS(=O)(=O)c1cc(C2(NC(=O)c3cncc4c3cnn4-c3ccc(F)cc3)CC2)ccn1
Observed: cell-free assay
Method: competition with immobilised ligand
Tested at: 1 µM
Quantity: remaining binding
target = Receptor-type tyrosine-protein kinase FLT3 (FLT3, Homo sapiens, UniProt P36888, ITD); result = 100%
target = Epidermal growth factor receptor (EGFR, Homo sapiens, UniProt P00533, del752-759); result = 98%
target = Tyrosine-protein kinase ABL1, phosphorylated (ABL1, Homo sapiens, UniProt P00519, Y253F); result = 91%
target = Cyclin-dependent kinase-like 2 (CDKL2, Homo sapiens, UniProt Q92772); result = 100%
target = Ribosomal protein S6 kinase alpha-5, N-terminal kinase domain (RPS6KA5, Homo sapiens, UniProt O75582); result = 100%
target = Serine/threonine-protein kinase ICK (CILK1, Homo sapiens, UniProt Q9UPZ9); result = 100%
target = Serine/threonine-protein kinase tousled-like 1 (TLK1, Homo sapiens, UniProt Q9UKI8); result = 75%
target = Proto-oncogene tyrosine-protein kinase Src (SRC, Homo sapiens, UniProt P12931); result = 100%
target = Serine/threonine-protein kinase BRSK2 (BRSK2, Homo sapiens, UniProt Q8IWQ3); result = 84%
target = Activin receptor type-2B (ACVR2B, Homo sapiens, UniProt Q13705); result = 100%
target = Wee1-like protein kinase 2 (WEE2, Homo sapiens, UniProt P0C1S8); result = 100%
target = SRSF protein kinase 1 (SRPK1, Homo sapiens, UniProt Q96SB4); result = 100%
target = Mitogen-activated protein kinase 11 (MAPK11, Homo sapiens, UniProt Q15759); result = 100%
target = Serine/threonine-protein kinase DCLK2 (DCLK2, Homo sapiens, UniProt Q8N568); result = 100%
target = Epidermal growth factor receptor (EGFR, Homo sapiens, UniProt P00533, del746-750); result = 100%
target = Mitogen-activated protein kinase kinase kinase 19 (MAP3K19, Homo sapiens, UniProt Q56UN5); result = 91%
target = Phosphatidylinositol 4,5-bisphosphate 3-kinase catalytic subunit alpha isoform (PIK3CA, Homo sapiens, UniProt P42336, M1043I); result = 93%
target = Epidermal growth factor receptor (EGFR, Homo sapiens, UniProt P00533, G719S); result = 100%
target = Serine/threonine-protein kinase 24 (STK24, Homo sapiens, UniProt Q9Y6E0); result = 82%
target = Dual specificity testis-specific protein kinase 1 (TESK1, Homo sapiens, UniProt Q15569); result = 62%
target = Aurora kinase B (AURKB, Homo sapiens, UniProt Q96GD4); result = 88%
target = Mast/stem cell growth factor receptor Kit (KIT, Homo sapiens, UniProt P10721, D816V); result = 100%
target = Mitogen-activated protein kinase 3 (MAPK3, Homo sapiens, UniProt P27361); result = 100%
target = Serine/threonine-protein kinase WNK4 (WNK4, Homo sapiens, UniProt Q96J92); result = 97%
target = Cyclin-dependent kinase 4, with cyclin D1 (CDK4, Homo sapiens, UniProt P11802); result = 100%

Further values, each from its own experiment
Structure (SMILES) = CC(=O)Oc1c(C)c(C)c2c(c1C)CCC(C)(CCC[C@H](C)CCC[C@H](C)CCCC(C)C)O2 (some centres unmarked); cell line = A-375; tested at = 100 µM; time = 60 h; quantity = viability; result = 106%

For quick reference, copied from above (series 1):
target = Megakaryocyte-associated tyrosine-protein kinase (MATK, Homo sapiens, UniProt P42679); result = 103%
target = Tyrosine-protein kinase Fyn (FYN, Homo sapiens, UniProt P06241); result = 45.7%
target = MAP/microtubule affinity-regulating kinase 3 (MARK3, Homo sapiens, UniProt P27448); result = 57.2%
target = Insulin receptor (INSR, Homo sapiens, UniProt P06213); result = 87.4%
target = Serine/threonine-protein kinase N1 (PKN1, Homo sapiens, UniProt Q16512); result = 68.9%
target = ALK tyrosine kinase receptor (ALK, Homo sapiens, UniProt Q9UM73); result = 72.1%
target = Proto-oncogene tyrosine-protein kinase Src (SRC, Homo sapiens, UniProt P12931); result = 45.1%
target = LIM domain kinase 1 (LIMK1, Homo sapiens, UniProt P53667); result = 74.1%
target = cAMP-dependent protein kinase catalytic subunit PRKX (PRKX, Homo sapiens, UniProt P51817); result = 81%
